Results pooled from the literature.
Lines come from different studies, so protocols differ.
Organism: Salmonella enterica

| SMILES | read-out | technique | strain | medium | time | quantity | result |
| --- | --- | --- | --- | --- | --- | --- | --- |
| O=C(c1ccccc1O)c1[nH]c(Cl)c(Cl)c1-n1c(C(=O)c2ccccc2O)cc(Cl)c1Cl | microbial growth | – | ATCC13311 | – | – | MIC | > 64 µM |
| C#CCNC(=O)C1(O/N=C(\C(=O)N[C@@H]2C(=O)N(OS(=O)(=O)O)C2(C)C)c2csc(N)n2)CC1 | microbial growth | agar dilution | TYPHI | – | – | MIC | 1 µg/mL |
| CNC(C)C1CCC(N)C(OC2C(N)CC(N)C(OC3OCC(C)(O)C(NC)C3O)C2O)O1 (stereo not drawn) | microbial growth | broth dilution | CHOLERAESUIS | – | – | MIC | < 1 µM |
| CC1(C)[C@H](NC(=O)/C(=N\OCc2cc(=O)c(O)cn2O)c2csc(N)n2)C(=O)N1OS(=O)(=O)O | microbial growth | agar dilution | TYPHI | – | – | MIC | ≤ 0.03 µg/mL |
| CO[C@H]1O[C@H](COC(c2ccccc2)(c2ccccc2)c2ccccc2)[C@@H](OS(=O)(=O)c2ccccc2)[C@H](OS(=O)(=O)c2ccccc2)[C@H]1OS(=O)(=O)c1ccccc1 | microbial killing | broth dilution | TYPHI | – | – | MBC | 8 µg/mL |
| CC(C)C[C@H](NC(=O)[C@H](CCC(=O)O)NC(=O)[C@H](C)NC(=O)[C@H](CC(C)C)NC(=O)[C@H](CCC(=O)O)NC(=O)[C@H](C)NC(=O)[C@H](CCC(N)=O)NC(=O)[C@H](CC(C)C)NC(=O)[C@H](CCC(=O)O)NC(=O)[C@H](Cc1ccc(O)cc1)NC(=O)[C@H](CC(C)C)NC(=O)[C@H](CCC(N)=O)NC(=O)[C@H](C)NC(=O)[C@H](CCC(=O)O)NC(=O)[C@H](CC(C)C)NC(=O)[C@H](CCC(N)=O)NC(=O)[C@H](C)NC(=O)[C@H](CC(C)C)NC(=O)[C@H](CCC(=O)O)NC(=O)[C@H](C)NC(=O)[C@@H](N)CCC(N)=O)C(N)=O | – | broth microdilution | ATCC 700720 | – | 24 h | MIC | > 250 µM |
| CC[C@H](C)[C@H](NC(=O)[C@H](CCCCN)NC(=O)[C@H](CCCNC(=N)N)NC(=O)CNC(=O)[C@@H](NC(=O)CN)C(C)C)C(=O)NCC(=O)N[C@@H](Cc1ccccc1)C(=O)N[C@@H](CCCCN)C(=O)N[C@@H](CCCCN)C(=O)N[C@H](C(=O)N[C@@H](CC(C)C)C(=O)N[C@@H](Cc1ccccc1)C(=O)N[C@@H](Cc1ccccc1)C(=O)N[C@@H](Cc1ccccc1)C(=O)N[C@@H](CCCCN)C(=O)N[C@@H](CCCCN)C(=O)NCC(=O)N[C@@H](Cc1ccc(O)cc1)C(=O)N[C@@H](CCC(=O)O)C(=O)N[C@@H](CCCCN)C(=O)N[C@@H](C)C(=O)N[C@@H](CC(N)=O)C(=O)NCC(=O)NCC(=O)N[C@@H](Cc1ccccc1)C(=O)N[C@H](C(=O)N[C@@H](CCCCN)C(=O)N[C@@H](CCCCN)C(=O)N[C@@H](CCCCN)C(=O)NCC(=O)O)C(C)C)C(C)C | – | broth microdilution, agar subculture | ATCC 15611 | CaMHB | – | MBC | > 1020 µM |
| CC(C)C[C@H](NC(=O)[C@H](CCCNC(=N)N)NC(=O)[C@H](C)NC(=O)[C@H](CC(C)C)NC(=O)[C@H](CCCNC(=N)N)NC(=O)[C@H](C)NC(=O)[C@H](CCCCN)NC(=O)[C@H](CC(C)C)NC(=O)[C@H](CCCNC(=N)N)NC(=O)[C@H](Cc1ccc(O)cc1)NC(=O)[C@H](CC(C)C)NC(=O)[C@H](CCCNC(=N)N)NC(=O)[C@H](C)NC(=O)[C@H](CCCNC(=N)N)NC(=O)[C@H](CC(C)C)NC(=O)[C@H](CCCCN)NC(=O)[C@H](C)NC(=O)[C@H](CC(C)C)NC(=O)[C@H](CCCNC(=N)N)NC(=O)[C@H](C)NC(=O)[C@@H](N)CCCCN)C(N)=O | – | broth microdilution | ATCC 700720 | – | 24 h | MIC | 3.1 µM |
| COc1cccc(OC)c1C(=O)N[C@@H]1C(=O)N2[C@@H]1SC(C)(C)[C@@H]2C(=O)O | microbial growth | broth dilution | CHOLERAESUIS | – | – | MIC | > 128 µM |

Repeated from above:
| SMILES | read-out | technique | strain | medium | time | quantity | result |
| --- | --- | --- | --- | --- | --- | --- | --- |
| C#CCNC(=O)C1(O/N=C(\C(=O)N[C@@H]2C(=O)N(OS(=O)(=O)O)C2(C)C)c2csc(N)n2)CC1 | microbial growth | agar dilution | TYPHI | – | – | MIC | 1 µg/mL |
